Assay results from different studies.
Numbered parts are unrelated; each lists some results of a single study.

Series 1 — technique: universal PBM; molecule type: double-stranded DNA, one strand shown; matrix: in vitro; tested at: not given; direction: higher = stronger binding
Target: Sal-like protein 4, full length isoform B (SALL4, Homo sapiens, UniProt Q9UJQ4-2, residues 1-616)
Setting: 8-mer, flanks averaged, mean of replicates
Residues (chain): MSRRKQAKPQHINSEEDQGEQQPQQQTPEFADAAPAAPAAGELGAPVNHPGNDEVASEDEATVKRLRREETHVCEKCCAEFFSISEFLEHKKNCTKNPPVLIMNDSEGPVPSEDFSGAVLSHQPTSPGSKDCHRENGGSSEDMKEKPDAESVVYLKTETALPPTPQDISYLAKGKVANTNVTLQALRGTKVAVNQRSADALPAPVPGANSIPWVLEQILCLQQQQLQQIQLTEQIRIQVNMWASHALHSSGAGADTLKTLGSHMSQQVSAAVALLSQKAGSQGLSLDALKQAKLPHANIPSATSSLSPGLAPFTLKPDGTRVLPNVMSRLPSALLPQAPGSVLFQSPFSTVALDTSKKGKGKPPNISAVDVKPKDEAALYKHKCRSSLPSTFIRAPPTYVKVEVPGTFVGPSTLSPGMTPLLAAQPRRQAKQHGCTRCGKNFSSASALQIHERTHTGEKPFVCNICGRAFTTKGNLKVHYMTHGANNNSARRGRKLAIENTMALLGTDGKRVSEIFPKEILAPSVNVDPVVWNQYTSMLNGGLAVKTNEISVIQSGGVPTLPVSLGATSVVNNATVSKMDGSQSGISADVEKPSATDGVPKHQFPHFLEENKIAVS
Sequence | E-score
CAGTATCA | 0.0199
AGCGTCGG | -0.116
CGCCTCTA | -0.125
AGATGGTC | -0.177
CAATCAGG | -0.0172
CATCCGCC | -0.215
TACAAGCA | 0.121
CGGCGGTA | -0.276
TAAGTAAA | 0.276
CGGACATC | -0.171
CCTTCTCC | -0.2
ACCCGATC | -0.0866
CCAGGCTC | -0.214
CCGACCGC | -0.239
CCGTGGCG | -0.314
AAAGAGTG | -0.017
CAATGTCA | 0.21
CAAACGGG | -0.192
CTAAACGC | -0.0399
ACTACCCC | -0.0442
CAGCCCCA | -0.212
GACTACGA | -0.14
CGAGAGCA | -0.0516
AGTGAAGC | 0.0461
AGCCTTTA | 0.0815

Series 2 — technique: RNA Bind-n-Seq; molecule type: RNA; matrix: in vitro; tested at: 365 nM; relative to: no-protein control; direction: higher = stronger binding
Target: RNA binding protein fox-1 homolog 2, RRM domain, GST-SBP tag (RBFOX2, Homo sapiens, UniProt O43251-10, residues 100-194)
Setting: natural RNA segment, single round, ends assumed
Sequence | RBNS enrichment (R)
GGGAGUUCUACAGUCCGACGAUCUUCAUUUGAGUCUUAGCUCCCAUUUAAGUUAUGCUUCUGACCUUGUAUGGUCUGUAAGCUUGCCCAGAAAUAAGACCACUGUUUUGAACUACCACAAAAGUAUAAAUGAAUGGAAUUCUCGGGUGCCAA | 0.549
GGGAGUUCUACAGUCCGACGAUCUUUUAAAGGUAAAUUGCACUUUUAAAAAUUGGUUGACUUAAUAUAUUUGCUCUUUUUUUUUUUUUACCUGCACUUAGAGAGGAAAUUUGAACACCAGAAACCACUUUUUUUGGAAUUCUCGGGUGCCAA | 1.55
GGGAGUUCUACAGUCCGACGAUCAUGAUUCUAUGUAAUGUAAACCAGAAAAAAUAAAUGUUCAUGAUUUCAAGAUGUUAUAUUAAAGAAAAACUUUAAAAAUUAUUAUAUAUUUAUAGCAAAGUUAUCUUAAAUGGAAUUCUCGGGUGCCAA | 1.56
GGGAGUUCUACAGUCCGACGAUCAAGUCUGGUAUUAAAACCUCUCUUACUUUUAAACUUGAUUUUGCAGACUCUGGCAAUAAGCCUUCCAAAAUUCUGUGCCUUUUCUAUUAUCACCAAACAAUAUGUUAAGUUGGAAUUCUCGGGUGCCAA | 0.732
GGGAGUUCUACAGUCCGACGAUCAGGCAGCAUUGCUUGAACCCAGGAGGUGGAGGUUGCAGUGAGCCAAGAUCACACCACUGCACUCCAGCCUGGGCGACAGAGGGAGACACUGUCUCCAAAAGAAAGAAAUCUGGAAUUCUCGGGUGCCAA | 0.455
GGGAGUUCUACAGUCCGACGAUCACGAGAACAGUUUGUACAAGUUUUUUUUUUUGAAUAAAACUUUUCCAAUGAAAUGUUAUAGGUGUGUGAAAGCAGAUUAAAGAAAGAGGUUCCCAUAUCAUUCUUUCUAAUGGAAUUCUCGGGUGCCAA | 0.488
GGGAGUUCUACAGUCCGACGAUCCUCCGGAGCACUUCAUUGACCUCUUCAAGUUUGAUGGUGCACUCAGCCCCGUGCCCUUGUCUACAGCUGUCCCUUGUGCUUUCUGUGUCGUGUAGUUGGUGUGAGUAUUCUGGAAUUCUCGGGUGCCAA | 0.363
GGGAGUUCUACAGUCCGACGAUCUUAGAUAAUAACAAGUGAUUAAGAAAGGGGAGAUAUGGUUUUAUACUCAUAACAAUUUCCUGUGCCAUUCUCUGUACACAGAGGUGAUUCAUUUACUCUCCCAUUAGUAGUGGAAUUCUCGGGUGCCAA | 0.402

Series 3 — technique: protein binding microarray; molecule type: double-stranded DNA, one strand shown; matrix: in vitro; tested at: not given; relative to: not given; direction: higher = stronger binding
Target: Histone acetyltransferase KAT6A, winged helix 2, GST fusion (KAT6A, Homo sapiens, UniProt Q92794, residues 85-181)
Setting: 8-mer, flanks averaged, mean of 2 arrays, mostly near background
Target sequence (chain): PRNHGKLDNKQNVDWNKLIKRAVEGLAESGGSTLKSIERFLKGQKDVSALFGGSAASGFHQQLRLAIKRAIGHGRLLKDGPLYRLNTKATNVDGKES
Sequence | E-score
ATCGCAGG | 0.106
CTGTATAC | -0.0216
CAATAGTA | -0.146
TGCCTCAA | 0.0397
CATGGGGA | 0.025
CCGTGTAG | -0.0785
CGGCACAG | 0.2
ATTGCATC | 0.11
ACAACACC | -0.0848
CCATCTAA | -0.0232
GATCTTGC | 0.186
AGAACCTA | -0.217
CGCTATGC | 0.00625
CAGAGCAC | 0.119
CTTTACAA | 0.0115
GGGGTCAC | 0.00148
GCATTTCC | 0.0982
ACCGCTGG | 0.0534
TATAGTCA | 0.0459
CAAGTTCA | 0.109
TAAGGGAA | -0.152
CTCCCATC | -0.0475
CCGACGAG | 0.157
CGACTCTC | -0.147

Series 4 — technique: RNA Bind-n-Seq; molecule type: RNA; matrix: in vitro; tested at: 1 µM; setting: whole 134-nt RNA, ends assumed; together with: 150 mM KCl; relative to: input library; direction: higher = stronger binding
Target: Ras GTPase-activating protein-binding protein 1, C-terminal RGG region (G3BP1, Homo sapiens, UniProt Q13283)
Chain of UniProt Q13283 (whole entry, looked up): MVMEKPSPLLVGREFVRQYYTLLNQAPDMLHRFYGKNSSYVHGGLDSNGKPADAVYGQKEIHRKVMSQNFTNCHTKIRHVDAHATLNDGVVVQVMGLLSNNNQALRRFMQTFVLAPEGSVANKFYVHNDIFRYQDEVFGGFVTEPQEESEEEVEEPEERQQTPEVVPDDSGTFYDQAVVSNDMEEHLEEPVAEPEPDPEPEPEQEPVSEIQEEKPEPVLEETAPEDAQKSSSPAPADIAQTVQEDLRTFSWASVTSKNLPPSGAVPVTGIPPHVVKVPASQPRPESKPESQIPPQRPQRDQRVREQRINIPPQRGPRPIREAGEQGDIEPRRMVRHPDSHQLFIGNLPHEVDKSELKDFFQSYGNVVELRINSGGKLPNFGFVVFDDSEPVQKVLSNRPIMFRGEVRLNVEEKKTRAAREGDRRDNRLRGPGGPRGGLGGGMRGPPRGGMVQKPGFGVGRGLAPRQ
Sequence | log2 enrichment
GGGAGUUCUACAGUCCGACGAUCCAAGUCCUGUGCUACACAUCGUAUGUACCGAAUCGGAAAAGGAAAAGGGAAAAGGAAAGUAUUAUGUUACGCCGUUCGGAUCUGCACUUCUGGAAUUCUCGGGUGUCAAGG | -1.75
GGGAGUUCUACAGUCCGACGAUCUGGGAGGUGGAUUUUGUUUAUUUUUUUAGCUCAUUUCCAGGGGUGGGAAUUUUUUUAUAAUAUGUGUCAUGAAUAAAGUUGUUUUUGAAAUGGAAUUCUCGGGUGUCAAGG | 2.95
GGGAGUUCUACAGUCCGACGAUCCAAGUCCUGUGCUACACAUCGUAUGUACCGAAUCGGAAAAAAAGGUUUGGAAAGGAAAGUAUUAUGUUACGCCGUUCGGAUCUGCACUUCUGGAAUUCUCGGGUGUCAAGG | -2.15
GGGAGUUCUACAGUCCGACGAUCCCUCAAGUCCUGUGCUACACAUCGUAUGUACCGAAUCGGCGGGGCGGGGCGGAAAGUAUUAUGUUACGCCGUUCGGAUCUGCACUUCCAGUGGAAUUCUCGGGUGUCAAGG | -0.788
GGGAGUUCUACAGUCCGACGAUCUGGGAGGUGGAUUUUGUUUAUUUUUUUAGCUCAUUUCCAGGGGUGGGAAUUUUUUUUUAAGAUGUGUCAUGAAUAAAGUUGUUUUUGAAAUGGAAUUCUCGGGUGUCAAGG | 3.39
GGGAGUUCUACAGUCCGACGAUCCUCAAGUCCUGUGCUACACAUCGUAUGUACCGAAUCGGGUGGGGUGGGUGGGGAAAGUAUUAUGUUACGCCGUUCGGAUCUGCACUUCCAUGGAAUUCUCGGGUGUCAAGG | 2.24
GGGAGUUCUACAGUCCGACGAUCGCAGGAAGUAAAAACAAAUGGAAAUGCUUCGGAUAGUGGCAGGGGUGGGGGUUGCUAAGGAAAGGGUGGGAUGGGAGUGGGUAUAGAGUUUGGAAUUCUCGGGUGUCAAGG | 0.736
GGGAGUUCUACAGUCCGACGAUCCCUGUGCUACACAUCGUAUGUACCGAAUCGGGGAAAAAGGGGAAAAAAAGGGGAAAGGGGAAAGUAUUAUGUUACGCCGUUCGGAUCUGCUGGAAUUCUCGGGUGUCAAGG | 0.79
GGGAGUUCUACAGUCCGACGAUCCCUCAAGUCCUGUGCUACACAUCGUAUGUACCGAAUCGGGCGGGGCGGGGCGGAAAGUAUUAUGUUACGCCGUUCGGAUCUGCACUUCCAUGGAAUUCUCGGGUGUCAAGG | 0.083

A few entries again (series 3):
Sequence | E-score
CCGTGTAG | -0.0785
CGGCACAG | 0.2
ATTGCATC | 0.11
ACAACACC | -0.0848
CCATCTAA | -0.0232
GATCTTGC | 0.186
AGAACCTA | -0.217
